{"data": "Experimental data from different studies", "target": "Serine/threonine-protein kinase PLK4 (PLK4, Homo sapiens, UniProt O00444)", "One construct used (O00444 1-970)": "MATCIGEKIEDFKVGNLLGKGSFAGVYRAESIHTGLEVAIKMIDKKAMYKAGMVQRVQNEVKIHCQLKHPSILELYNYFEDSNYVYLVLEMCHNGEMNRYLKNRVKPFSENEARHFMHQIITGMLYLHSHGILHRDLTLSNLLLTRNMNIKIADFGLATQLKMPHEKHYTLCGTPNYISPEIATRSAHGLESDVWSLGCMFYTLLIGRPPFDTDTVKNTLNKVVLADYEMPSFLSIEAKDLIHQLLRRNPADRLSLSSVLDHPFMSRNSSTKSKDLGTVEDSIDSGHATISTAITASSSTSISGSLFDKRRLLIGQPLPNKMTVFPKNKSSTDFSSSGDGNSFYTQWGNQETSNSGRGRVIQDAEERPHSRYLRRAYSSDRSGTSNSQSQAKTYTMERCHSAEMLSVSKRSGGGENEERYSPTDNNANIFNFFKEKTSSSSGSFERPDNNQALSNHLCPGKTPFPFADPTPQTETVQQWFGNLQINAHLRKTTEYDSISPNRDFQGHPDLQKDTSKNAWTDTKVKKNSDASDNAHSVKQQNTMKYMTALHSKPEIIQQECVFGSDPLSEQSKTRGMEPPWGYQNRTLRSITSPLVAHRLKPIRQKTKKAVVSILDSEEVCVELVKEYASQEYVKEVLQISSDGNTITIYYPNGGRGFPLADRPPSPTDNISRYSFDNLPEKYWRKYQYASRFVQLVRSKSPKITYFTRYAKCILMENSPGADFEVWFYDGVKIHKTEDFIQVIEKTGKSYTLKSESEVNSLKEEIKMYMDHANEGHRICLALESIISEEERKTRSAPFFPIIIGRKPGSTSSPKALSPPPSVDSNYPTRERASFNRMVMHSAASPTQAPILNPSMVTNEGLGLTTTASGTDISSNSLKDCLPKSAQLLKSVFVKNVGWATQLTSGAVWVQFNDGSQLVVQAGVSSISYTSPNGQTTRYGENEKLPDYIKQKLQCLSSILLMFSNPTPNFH", "note": "Compare with care: the assays were run in different laboratories. Values joined by “and” are separate records of one study, mostly repeats; a detail may differ."}
{"Structure (SMILES)": "COc1cc(Nc2nccc(-c3cnn4nc(OC)ccc34)n2)cc(C(F)(F)F)c1", "assay": "binding, competition with immobilised ligand", "setting": "1 µM", "quantity": "remaining binding", "value": "64%"}
{"Structure (SMILES)": "COc1ccc(NC(=O)Nc2ccc3c(c2)C(=O)N(C(C)CO)CC(C)C(CN(C)Cc2ccc4c(c2)OCO4)O3)cc1 (centres unmarked)", "assay": "binding, competition with immobilised ligand", "setting": "10 µM", "quantity": "remaining binding", "value": "61%"}
{"Structure (SMILES)": "C=CC(=O)N1CCc2ccc(-n3c(=O)ccc4cnc5ccc(-c6cnn(C)c6)cc5c43)cc21", "assay": "KINOMEscan", "setting": "1 µM", "how to read": "relative to: DMSO control", "quantity": "remaining binding", "value": "50%"}
{"Structure (SMILES)": "Cc1cccc(O[C@H]2CCC[C@@H](C(C)CNCc3ccncc3)C2)c1 (relative stereo)", "assay": "enzyme activity, inhibitor", "setting": "10 µM", "quantity": "inhibition", "value": "-18%"}
{"Structure (SMILES)": "CNC(=O)C[C@H](Cc1ccc(C#N)cc1)NC(=O)c1cc(-c2ccc(CN[C@H](C)c3ccc(C)cc3)o2)ccc1Cl", "assay": "enzyme activity, inhibitor", "setting": "1 µM", "quantity": "activity vs control", "value": "90%"}
{"Structure (SMILES)": "NC(=O)C[C@H]1CCc2sc3ncnc(O[C@H]4CC[C@H](N5CCOCC5)CC4)c3c21", "assay": "enzyme activity, inhibitor", "setting": "10 µM", "quantity": "inhibition", "value": "0%"}
{"Structure (SMILES)": "CN1CC[C@@H](COc2cnc(C#N)cc2-c2ccn3nc(NC(=O)C4CC4)cc3c2)C1", "assay": "enzyme activity, inhibitor", "setting": "1 µM", "quantity": "inhibition", "value": "1%"}
{"Structure (SMILES)": "CCN1CCN(Cc2ccc(C(=O)Nc3ccc(C)c(NCc4cnc5[nH]ccc5c4OC)c3)cc2C(F)(F)F)CC1", "assay": "binding, competition with immobilised ligand", "setting": "1 µM", "quantity": "remaining binding", "value": "83%"}
{"Structure (SMILES)": "Nc1ncc(-c2cc(-c3cnn(CC(F)(F)F)c3)ncc2F)nc1C(=O)NC1CNCC(F)C1 (centres unmarked)", "assay": "enzyme activity", "setting": "1 µM", "how to read": "relative to: DMSO control", "quantity": "remaining activity", "value": "93%"}
{"Structure (SMILES)": "CN1CCN(Cc2ccc(-c3ccc(CO[C@H]4CCC[C@@H]4NC(=O)c4cc(-c5cnn(C)c5)cnc4N)cc3)cc2)CC1", "assay": "enzyme activity, inhibitor", "setting": "0.1 µM", "quantity": "inhibition", "value": "0%"}
{"Structure (SMILES)": "CN1CCN(Cc2ccc(NC(=O)c3cccc(C#Cc4cnc(N)c5ncccc45)c3)cc2C(F)(F)F)CC1", "assay": "cell-free assay, competition with immobilised ligand", "setting": "0.5 µM", "quantity": "remaining binding", "value": "69%"}
{"Structure (SMILES)": "C=CC(=O)Nc1cccc(-c2cnc3[nH]cc(C(=O)NC(C)(C)C)c3n2)c1", "assay": "kinase activity", "setting": "0.1 µM", "quantity": "inhibition", "value": "8% and 16%"}
{"Structure (SMILES)": "O=C(Cc1ccc(OCc2ccccc2)cc1)NC1(C(=O)O)CCN(C(=O)c2ccc(-c3cccc(Cl)c3)cc2)CC1", "assay": "enzyme activity, inhibitor", "setting": "10 µM", "quantity": "activity vs control", "value": "103%"}
{"Structure (SMILES)": "COc1cc(-n2cc3cc(F)cc(C(N)=O)c3n2)cc(Cl)c1C1CC(O)(CCO)Cc2ccccc21 (centres unmarked)", "assay": "enzyme activity, inhibitor", "setting": "10 µM", "quantity": "inhibition", "value": "0.87%"}
{"Structure (SMILES)": "Cc1cnc2nc1Nc1cccc(c1)COC/C=C/COCc1cc(ccc1OCCN1CCOCC1)N2", "assay": "binding", "setting": "0.1 µM", "quantity": "remaining binding", "value": "54%"}
{"Structure (SMILES)": "CNS(=O)(=O)Nc1nccc(Cc2c(C)c3ccc(Oc4ncccc4F)cc3oc2=O)c1F", "assay": "binding, competition with immobilised ligand", "setting": "10 µM", "quantity": "remaining binding", "value": "100%"}
{"Structure (SMILES)": "Cc1ccc(-c2c(/C=C(\\C#N)C(=O)NC(C)C)n(CCCO)c3ncnc(N)c23)cc1", "assay": "cell-free assay, competition with immobilised ligand", "setting": "1 µM", "quantity": "remaining binding", "value": "100%"}
{"note": "For quick reference, copied from above:"}
{"Structure (SMILES)": "C=CC(=O)Nc1cccc(-c2cnc3[nH]cc(C(=O)NC(C)(C)C)c3n2)c1", "assay": "kinase activity", "setting": "0.1 µM", "quantity": "inhibition", "value": "8% and 16%"}
